Experimental data gathered from unrelated publications.
Each numbered part is a random draw from the data of one study; scales do not carry over between parts.

Block 1
Target: Histone acetyltransferase KAT6A, winged helix 2, GST fusion (KAT6A, Homo sapiens, UniProt Q92794, residues 85-181)
Technique: protein binding microarray
Molecule type: double-stranded DNA, one strand shown
Medium: in vitro
Tested at: not given
Notes: 8-mer, flanks averaged, mean of 2 arrays, mostly near background
Baseline: not given
Direction: higher = stronger binding
Construct (chain): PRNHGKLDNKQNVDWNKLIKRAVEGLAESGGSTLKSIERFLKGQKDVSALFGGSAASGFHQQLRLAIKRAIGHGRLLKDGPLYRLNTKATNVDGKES
Oligonucleotide	E-score
GCGCCCAA	0.211
ATATTCCA	0.113
CGCTAGCG	0.171
ACTCCGTA	-0.206
CTTAAACC	-0.0832
CCAGAGCC	0.0447
CCTGCGCG	0.205
CCGTAAGA	-0.132
CAAGTTGA	-0.138
GAACAGAA	-0.0921
CTAGCCAG	-0.091
AAGGGGTA	-0.208
AGGGGGTC	-0.0991
CCATAATC	-0.0121
TGACAGCA	0.118
ACACTTTA	-0.209
ACGATCCT	-0.0205

Block 2
Target: RNA binding protein fox-1 homolog 2, RRM domain, GST-SBP tag (RBFOX2, Homo sapiens, UniProt O43251-10, residues 100-194)
Technique: RNA Bind-n-Seq
Molecule type: RNA
Medium: in vitro
Tested at: 365 nM
Notes: natural RNA segment, single round, ends assumed
Baseline: no-protein control
Direction: higher = stronger binding
All sequences stand within: GGGAGUUCUACAGUCCGACGAUC … UGGAAUUCUCGGGUGCCAA
Residues (chain): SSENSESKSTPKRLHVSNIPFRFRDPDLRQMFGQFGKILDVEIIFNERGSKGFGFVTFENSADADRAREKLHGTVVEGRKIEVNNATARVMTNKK
Oligonucleotide	RBNS enrichment (R)
AGACCAUACCCAACUCAUGUGCAUGUGCCGUUUUUGCUUCAAGCUCAGUAGCAGGACCUGCCCCGAGCCCCCUGCUCCUUGCCCCUCUGUGAGGAGUUACGGAGAGGGCU	3.74
UGCUUGUGAAAAUGUGUUCUCGGAGUGUGUAUGCCAAGAGUGCACCCAUGGUACCAAUCAUGAAUCUUUGUUUCAGGUUCAGUAUUAUGUAGUUGUUCGUUGGUUAUACA	0.855
GGCUGGAACCAUAAGAAGAAUGUUUAUCAGCACGUUCAUUUAUUAUUUUGGAUUUGGAACUUGGCUUUGUUUUUCAAUAGUGACAAGAAUGGUUCAGUUCUAGGAAUGUU	2.09
AGAGUGUGGUUCCUUCUGAUGGGGAGAAAGGGCAAAUUAUUUUAAUAUUUUGUAUUUUCACCUUUAUAAACAUGAAUCCUCAGGGGUGAAGAACUGUUUGCAUAAUUUUC	0.918
GUAUCUCAUAAGGUAAACCAAUAGCUGAUUAUGUGGAGCCAAGUUACUUCUUUUCUUUUUGCAUUAUCUUGUUUUGGUUUUGUGCUGUAAUAGAAGUUCACUUAGCUACU	0.369
UCACGAGACAAUGAAAAUGCAGAGACUGAACUUGGGGGUCGUUCUGUGCCUUCCAGCAUCUUGUACAGCAAACCCUGACUUGUCUUUAUACCCCCAAAAUACCGUCUUCA	1.11
UGUUCUUUUCAACCUCUGCCCACCCGUGCAUGUCAUCACAAACAUUUGCUCUUAAGUUACAAGAGACCACAUCCACCCAGGGAUUAGGGUUCAAGUAGCAGCUGCUAACC	1.07
GCCCUUGCUGGUCUCUCCACACAUUCCUGUCAUUGAGACUUGAAUUGUAGGUGUGAUGUUAUGCACAGGAUGCUCAGAGCUAUGUUACUACUAUUCUUAGUUUGUAAAUU	0.293
UUUAAUUAUUCCUCCUAGUGAGCUUGCAAAGCAUAGACUAAAUUAAACCCUAAUGUUAGAUGUCAGUAUAAAGCCCUUAGAAUUUUUCCUCAAGGACCCCUUCUUCCUUU	0.547
UCCCUGAGGUGAGGUUCAGGUUUAUGUCCCUGUCUGUGGCAUAGAUACAUCUCAGUGACCCAGGGUGGGAGGGCUAUCAGGGUGCAUGGCCCGGGACACGGGCACUCUUC	14.5
CUUCUAUUCAAUUGGGAAAAUUUGAACCAAAGCAGAUUUCUUCAGGGCUGAGGGUCUCCAACCGAUGCAUAGAUACAUUGAAAUACUUUAGAUUUCCCACAUGGAUGGUU	1.27
UGAGGGAUCCGGGGGUUCAAUUUAUUUUGAUUUUUUUUUUUGGUUGUUUAUUUUUGCUUGUUAUGUUAAGCAAAAAUCCUGCAAUGAAAGGUACUAUAUUUGCCAGACUC	1.45

Block 3
Target: Sal-like protein 4, full length isoform A (SALL4, Homo sapiens, UniProt Q9UJQ4, residues 1-1053)
Chain of UniProt Q9UJQ4 (whole entry, looked up): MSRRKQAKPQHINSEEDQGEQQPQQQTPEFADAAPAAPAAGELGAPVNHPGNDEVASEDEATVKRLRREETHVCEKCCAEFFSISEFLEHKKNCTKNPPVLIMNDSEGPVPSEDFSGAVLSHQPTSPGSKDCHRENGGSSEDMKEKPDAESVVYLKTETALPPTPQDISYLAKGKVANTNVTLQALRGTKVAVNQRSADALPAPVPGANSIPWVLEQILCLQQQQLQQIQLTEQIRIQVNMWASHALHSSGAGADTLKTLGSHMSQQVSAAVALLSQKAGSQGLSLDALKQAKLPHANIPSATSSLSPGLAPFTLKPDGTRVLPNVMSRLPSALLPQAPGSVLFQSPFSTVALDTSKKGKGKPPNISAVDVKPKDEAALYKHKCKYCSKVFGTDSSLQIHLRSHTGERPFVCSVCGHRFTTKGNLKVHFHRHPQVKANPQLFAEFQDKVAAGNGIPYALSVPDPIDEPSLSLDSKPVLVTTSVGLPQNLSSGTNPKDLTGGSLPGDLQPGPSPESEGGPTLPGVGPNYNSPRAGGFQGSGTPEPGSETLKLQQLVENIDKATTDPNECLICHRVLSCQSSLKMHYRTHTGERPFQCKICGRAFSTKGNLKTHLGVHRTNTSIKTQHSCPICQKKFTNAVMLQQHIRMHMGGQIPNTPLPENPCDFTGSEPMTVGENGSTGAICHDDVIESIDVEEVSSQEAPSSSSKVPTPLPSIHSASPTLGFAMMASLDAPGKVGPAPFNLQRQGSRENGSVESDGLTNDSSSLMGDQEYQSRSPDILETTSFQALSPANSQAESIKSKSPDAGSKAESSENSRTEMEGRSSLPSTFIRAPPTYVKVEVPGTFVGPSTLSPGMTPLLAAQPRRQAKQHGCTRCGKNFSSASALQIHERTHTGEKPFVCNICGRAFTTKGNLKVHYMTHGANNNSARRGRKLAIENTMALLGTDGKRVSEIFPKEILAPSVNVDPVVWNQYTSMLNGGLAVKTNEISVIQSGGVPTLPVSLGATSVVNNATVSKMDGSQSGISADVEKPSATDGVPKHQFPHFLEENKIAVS
Technique: universal PBM
Molecule type: double-stranded DNA, one strand shown
Medium: in vitro
Tested at: 600 nM
Notes: 8-mer, flanks averaged, mean of replicates
Direction: higher = stronger binding
Oligonucleotide	E-score
GAACTTCC	-0.0909
GTCCGAGA	-0.0617
AGCAAAGG	0.0565
AGAATTCC	0.0043
AGGTGCAA	-0.0675
CAACCGGA	-0.166
CTCCAAAA	0.108
ACTCTTGG	-0.0886
ACGACGCT	-0.123
CTGCTGAC	-0.16
ATTTGAGC	0.0755
CAGATAAC	0.114
AGGGTCGC	-0.296
CCAAATCA	0.0524

Block 4
Target: Centromere-binding protein 1, full length, His-tagged (CBF1, Saccharomyces cerevisiae, UniProt P17106, residues 1-351)
Chain of UniProt P17106 (whole entry, looked up): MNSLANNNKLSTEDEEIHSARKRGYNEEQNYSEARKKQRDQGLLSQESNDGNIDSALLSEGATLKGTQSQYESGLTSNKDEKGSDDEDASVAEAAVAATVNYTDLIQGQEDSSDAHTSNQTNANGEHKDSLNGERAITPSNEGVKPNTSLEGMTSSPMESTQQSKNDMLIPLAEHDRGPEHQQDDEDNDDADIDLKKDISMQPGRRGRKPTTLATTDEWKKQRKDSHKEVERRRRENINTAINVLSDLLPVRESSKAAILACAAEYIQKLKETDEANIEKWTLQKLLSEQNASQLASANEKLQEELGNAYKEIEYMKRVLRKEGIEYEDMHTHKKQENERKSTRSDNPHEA
Technique: competition protein-binding microarray
Molecule type: double-stranded DNA, one strand shown
Medium: in vitro
Tested at: 2 µM
Notes: whole 60-bp probe, lowest competitor level
With: Pho4 competitor, 0.05 µM
Direction: higher = stronger binding
All sequences stand within: … GTCTTGATTCGCTTGACGCTGCTG
Oligonucleotide	fluorescence intensity [a.u.]
GCCTCCGTCTCTTCCACTGTGCAGGGCGCTAGCTCA	42.7
TGCGCAACAACTTGCGATGTGGGTGTATGTCTAGAA	61.7
CTAACGAAGGTTTGTCTAGTGGGTGACAAGCCAAGT	77.5
GAGAATGCCTTTGTCCATGTGATAAACCGTCCAAAA	303
CCTCGGAAAAACCTCCACGTGTTGGGTTATTCCGCC	1230
ATTGAAAGCGCCCGGATCGTGCCAGTATTTACCACC	87.1
ATGATGACAGGATAGCATGTGCTTTTCGACGGCTGA	122
TTTTTCTACAAAATGCACATGACAGGATGACCTTCC	411

Block 5
Target: Interferon regulatory factor 7, full length, phosphomimetic (IRF7, Homo sapiens, UniProt Q92985, residues 1-503, S101K/S471D/S472D/S475D/S476D/S477D/S483D/S484D/S487D)
Technique: protein-binding microarray
Molecule type: double-stranded DNA, one strand shown
Medium: in vitro
Tested at: 250 nM
Notes: 60-bp whole probe
With: salmon DNA 0.4 mg/ml
Baseline: random background probes
Direction: higher = stronger binding
All sequences stand within: GCCTAGCAC … GTCTTGATTCGCTTGACGCTGCTG
Residues (chain): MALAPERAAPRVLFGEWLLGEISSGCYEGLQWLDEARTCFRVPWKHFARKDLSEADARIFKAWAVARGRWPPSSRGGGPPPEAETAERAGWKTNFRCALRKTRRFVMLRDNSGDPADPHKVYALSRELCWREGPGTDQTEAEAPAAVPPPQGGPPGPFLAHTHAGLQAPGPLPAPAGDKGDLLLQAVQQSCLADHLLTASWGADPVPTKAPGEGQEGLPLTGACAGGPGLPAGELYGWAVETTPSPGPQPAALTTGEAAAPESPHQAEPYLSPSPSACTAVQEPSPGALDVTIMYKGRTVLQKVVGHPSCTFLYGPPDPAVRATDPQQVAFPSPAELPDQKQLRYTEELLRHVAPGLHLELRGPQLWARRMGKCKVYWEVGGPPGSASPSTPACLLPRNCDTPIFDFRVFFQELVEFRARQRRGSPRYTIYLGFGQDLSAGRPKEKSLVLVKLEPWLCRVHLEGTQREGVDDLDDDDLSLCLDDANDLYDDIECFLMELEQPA
Oligonucleotide	log fluorescence
GTGAGTCCCAAGAATGGTGTGGTGCTA	0.286 z-score
TTAGATCTCAATTTCGATTAGTGCTAG	1.4 z-score
GACGGTATCGGACTGAGGACGTGCTAG	-0.0956 z-score
TTTGGTTTCCTACTGCTTTAGTGCTAG	1.97 z-score
TTAGATCTCAGTCACGATTAGTGCTAG	0.453 z-score
GACGAACTGAATTTCGAGACGTGCTAG	0.123 z-score
AATTGTCTCTGTCCCTGTTTGTGCTAG	1.68 z-score
TCACCTGTACATCTATGACTGTGCTAG	-0.0382 z-score
TTAGGGATCCTTCTCCTTTAGTGCTAG	-0.194 z-score
TCATCTTTCACTGCTGCACTGTGCTAG	0.671 z-score
TTAGGTATCCTACTGCGTTAGTGCTAG	-0.0955 z-score

Block 6
Target: PABPC1L2, full length, GST fusion (mouse, UniProt A0ABA7IW68)
Technique: RNAcompete
Molecule type: RNA
Medium: in vitro
Tested at: 20 nM
Notes: 7-mer, probes averaged, single round
Baseline: mean of 7-mers
Direction: higher = stronger binding
Target sequence (chain): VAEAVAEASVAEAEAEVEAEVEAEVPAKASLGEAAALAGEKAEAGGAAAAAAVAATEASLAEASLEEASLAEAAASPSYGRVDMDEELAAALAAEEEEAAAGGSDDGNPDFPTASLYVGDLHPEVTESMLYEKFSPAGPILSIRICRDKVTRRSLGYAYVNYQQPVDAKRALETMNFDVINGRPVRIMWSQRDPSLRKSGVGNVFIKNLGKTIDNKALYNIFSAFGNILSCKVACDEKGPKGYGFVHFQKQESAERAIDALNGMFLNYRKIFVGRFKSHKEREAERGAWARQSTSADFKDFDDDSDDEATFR
Oligonucleotide	7-mer Z-score
AGCUGCG	-0.193
ACUCGGU	-0.191
GGAACUC	-0.121
UACGCGG	-0.0663
UGCGCAA	0.314
AAUUGCG	0.186
CCUGGGG	-0.0536
UGCUUUA	-0.0355
AUUUCCG	-0.324
AUCGGCA	0.0388
CGCUCAU	-0.3
AGCCCUG	-0.367
CCUAAGC	-0.354
GUCUGGG	0.0334
GCGCCCC	-0.396
CUAGCCU	-0.4
GAGUUGU	-0.342
GCGACCC	0.000733
GAGAAUA	0.282

Block 7
Target: Ras GTPase-activating protein-binding protein 1, full length (G3BP1, Homo sapiens, UniProt Q13283)
Chain of UniProt Q13283 (whole entry, looked up): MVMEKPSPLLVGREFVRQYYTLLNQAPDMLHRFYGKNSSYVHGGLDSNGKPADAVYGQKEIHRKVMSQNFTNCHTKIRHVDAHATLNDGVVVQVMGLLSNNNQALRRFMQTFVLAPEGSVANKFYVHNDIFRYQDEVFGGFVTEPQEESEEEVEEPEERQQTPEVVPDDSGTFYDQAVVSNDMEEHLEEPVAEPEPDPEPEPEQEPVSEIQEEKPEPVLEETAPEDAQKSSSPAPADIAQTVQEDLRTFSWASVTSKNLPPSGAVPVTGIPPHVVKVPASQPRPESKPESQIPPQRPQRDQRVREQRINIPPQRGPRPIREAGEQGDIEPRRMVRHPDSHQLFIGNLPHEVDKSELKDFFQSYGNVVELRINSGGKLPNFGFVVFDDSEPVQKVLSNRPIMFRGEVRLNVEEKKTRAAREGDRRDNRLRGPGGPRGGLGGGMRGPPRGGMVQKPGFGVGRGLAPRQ
Technique: RNA Bind-n-Seq
Molecule type: RNA
Medium: in vitro
Tested at: 200 nM
Notes: whole 134-nt RNA, ends assumed
With: 150 mM KCl
Baseline: input library
Direction: higher = stronger binding
All sequences stand within: GGGAGUUCUACAGUCCGACGAUC … UGGAAUUCUCGGGUGUCAAGG
Oligonucleotide	log2 enrichment
GCAGGAAGUAAAAACAAAUGGAAAAAAUUCGGAUAGUGGCAGGGGUGGGGGUUGCUAAGGAAAGGGUGGGAUGGGAGUGGGUAAAGAGUU	0.712
ACCAUGCAGGUGGGCAUCUUUGGGAAGUGGGGCAAGGGGGAGAUAGGGAGGGGGGUAACACUUUGGGAACAGGUGGUCCCAGGUCGUUUC	1.23
UCCUCAAGUCCUGUGCUACACAUCGUAUGUACCGAAUCGGAAGGAAGGAAGGAAAGUAUUAUGUUACGCCGUUCGGAUCUGCACUUCCAG	-0.192
ACCAUGCAGGUGGGCAUCUUUGGGAAGUGGGGCAAGGGGGGGAUGGGGAGGGGGGUAACACUUUGGGAACAGGUGGUCCCAGGUCGUUUC	1.2
UGGUAGGUGGAUUUUGUUUAUUUUUUUAGCUCAUUUCCAGGGGUGGGAAUUUUUUUUUAAUAUGUGUCAUGAAUAAAGUUGUUUUUGAAA	-0.383
AGUCCUGUGCUACACAUCGUAUGUACCGAAUCGGAAAAAAAGGAAAGGAAAAAAAGGAAAGUAUUAUGUUACGCCGUUCGGAUCUGCACU	-1.08
CAAGUCCUGUGCUACACAUCGUAUGUACCGAAUCGGAAAGGAAAGGAAAAAAAGGAAAGUAUUAUGUUACGCCGUUCGGAUCUGCACUUC	-0.953
UCAAGUCCUGUGCUACACAUCGUAUGUACCGAAUCGGAAAAAAAGGUGGUUUGGAAAGUAUUAUGUUACGCCGUUCGGAUCUGCACUUCC	-1.16
GUCCUGUGCUACACAUCGUAUGUACCGAAUCAAACCCCCAAAUUUUUUUAAACCCAAAAAAGUAUUAUGUUACGCCGUUCGGAUCUGCAC	-0.00614
